Published values gathered from unrelated publications.
Lines come from different studies, so protocols differ.
ABL1 phosphorylated: Tyrosine-protein kinase ABL1, phosphorylated (ABL1, Homo sapiens, UniProt P00519)
UniProt P00519, sequence (whole entry, unmodified, looked up): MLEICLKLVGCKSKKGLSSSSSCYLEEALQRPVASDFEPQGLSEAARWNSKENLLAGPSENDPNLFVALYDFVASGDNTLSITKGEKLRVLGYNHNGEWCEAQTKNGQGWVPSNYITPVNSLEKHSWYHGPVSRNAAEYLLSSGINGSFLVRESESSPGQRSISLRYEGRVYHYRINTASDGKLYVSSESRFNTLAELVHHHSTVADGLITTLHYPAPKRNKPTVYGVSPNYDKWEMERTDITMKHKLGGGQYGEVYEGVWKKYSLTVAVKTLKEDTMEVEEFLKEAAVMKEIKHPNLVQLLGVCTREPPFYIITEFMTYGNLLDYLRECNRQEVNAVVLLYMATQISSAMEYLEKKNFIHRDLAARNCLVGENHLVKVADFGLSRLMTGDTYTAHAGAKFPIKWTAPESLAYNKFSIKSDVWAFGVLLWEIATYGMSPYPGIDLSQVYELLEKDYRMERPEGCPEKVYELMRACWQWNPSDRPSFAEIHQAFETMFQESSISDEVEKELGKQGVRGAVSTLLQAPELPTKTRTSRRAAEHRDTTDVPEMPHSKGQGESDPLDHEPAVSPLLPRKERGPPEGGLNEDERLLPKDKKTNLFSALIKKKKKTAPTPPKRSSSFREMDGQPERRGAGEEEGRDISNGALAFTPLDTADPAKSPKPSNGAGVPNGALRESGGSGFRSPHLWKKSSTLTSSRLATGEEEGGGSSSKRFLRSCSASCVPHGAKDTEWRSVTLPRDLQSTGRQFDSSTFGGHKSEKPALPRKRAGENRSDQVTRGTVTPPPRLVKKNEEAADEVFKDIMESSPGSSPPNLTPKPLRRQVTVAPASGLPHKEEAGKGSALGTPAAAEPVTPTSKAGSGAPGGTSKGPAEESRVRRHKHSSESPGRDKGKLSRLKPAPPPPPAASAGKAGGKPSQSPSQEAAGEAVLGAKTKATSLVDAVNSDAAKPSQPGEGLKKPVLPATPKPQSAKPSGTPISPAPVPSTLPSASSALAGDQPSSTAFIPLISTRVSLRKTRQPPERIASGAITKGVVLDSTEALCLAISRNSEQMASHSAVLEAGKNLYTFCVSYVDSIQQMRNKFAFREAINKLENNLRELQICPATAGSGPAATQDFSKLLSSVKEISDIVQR
BRPF1: Peregrin (BRPF1, Homo sapiens, UniProt P55201)
UniProt P55201, sequence (whole entry, looked up): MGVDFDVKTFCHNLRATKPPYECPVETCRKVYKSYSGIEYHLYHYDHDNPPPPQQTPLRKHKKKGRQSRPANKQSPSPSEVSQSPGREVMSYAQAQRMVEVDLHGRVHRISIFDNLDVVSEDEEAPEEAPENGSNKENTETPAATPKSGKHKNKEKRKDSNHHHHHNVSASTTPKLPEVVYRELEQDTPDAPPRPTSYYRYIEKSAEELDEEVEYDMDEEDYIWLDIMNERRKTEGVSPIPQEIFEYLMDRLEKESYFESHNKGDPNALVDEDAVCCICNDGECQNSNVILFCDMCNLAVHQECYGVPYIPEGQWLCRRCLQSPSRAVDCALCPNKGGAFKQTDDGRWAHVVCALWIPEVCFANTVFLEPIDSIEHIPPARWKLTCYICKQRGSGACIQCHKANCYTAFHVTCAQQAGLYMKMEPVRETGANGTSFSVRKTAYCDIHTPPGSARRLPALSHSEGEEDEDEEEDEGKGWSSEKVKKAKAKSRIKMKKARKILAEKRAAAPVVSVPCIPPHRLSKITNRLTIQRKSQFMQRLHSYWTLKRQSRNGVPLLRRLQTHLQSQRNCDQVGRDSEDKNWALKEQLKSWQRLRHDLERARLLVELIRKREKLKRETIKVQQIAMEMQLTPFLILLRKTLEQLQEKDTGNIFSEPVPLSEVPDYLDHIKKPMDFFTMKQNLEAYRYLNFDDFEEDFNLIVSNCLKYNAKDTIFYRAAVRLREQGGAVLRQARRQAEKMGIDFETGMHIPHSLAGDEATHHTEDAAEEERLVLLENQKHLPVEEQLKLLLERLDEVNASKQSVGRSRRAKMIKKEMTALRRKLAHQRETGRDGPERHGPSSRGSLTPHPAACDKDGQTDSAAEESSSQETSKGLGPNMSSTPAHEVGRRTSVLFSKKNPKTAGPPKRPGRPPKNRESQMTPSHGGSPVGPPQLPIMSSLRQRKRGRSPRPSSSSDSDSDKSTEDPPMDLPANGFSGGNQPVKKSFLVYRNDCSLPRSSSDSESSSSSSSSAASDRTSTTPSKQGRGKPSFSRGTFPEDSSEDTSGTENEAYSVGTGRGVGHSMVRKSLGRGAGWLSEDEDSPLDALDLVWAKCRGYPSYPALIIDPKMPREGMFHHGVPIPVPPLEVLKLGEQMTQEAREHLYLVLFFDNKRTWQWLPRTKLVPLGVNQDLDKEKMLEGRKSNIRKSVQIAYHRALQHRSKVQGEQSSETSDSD
UniProt P49674, sequence (whole entry, looked up): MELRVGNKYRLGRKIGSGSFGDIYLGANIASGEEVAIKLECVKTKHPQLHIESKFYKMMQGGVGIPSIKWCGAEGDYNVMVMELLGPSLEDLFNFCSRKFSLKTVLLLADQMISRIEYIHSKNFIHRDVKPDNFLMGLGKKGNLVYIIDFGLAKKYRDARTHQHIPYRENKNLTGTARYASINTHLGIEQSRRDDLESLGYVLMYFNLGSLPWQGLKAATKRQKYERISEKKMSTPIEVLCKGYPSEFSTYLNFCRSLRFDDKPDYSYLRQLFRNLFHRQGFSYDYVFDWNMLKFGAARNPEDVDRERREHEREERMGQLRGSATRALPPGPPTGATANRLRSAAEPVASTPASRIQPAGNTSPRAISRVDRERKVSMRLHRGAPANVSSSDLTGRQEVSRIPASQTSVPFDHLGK
UniProt P10721, sequence (whole entry, unmodified, looked up): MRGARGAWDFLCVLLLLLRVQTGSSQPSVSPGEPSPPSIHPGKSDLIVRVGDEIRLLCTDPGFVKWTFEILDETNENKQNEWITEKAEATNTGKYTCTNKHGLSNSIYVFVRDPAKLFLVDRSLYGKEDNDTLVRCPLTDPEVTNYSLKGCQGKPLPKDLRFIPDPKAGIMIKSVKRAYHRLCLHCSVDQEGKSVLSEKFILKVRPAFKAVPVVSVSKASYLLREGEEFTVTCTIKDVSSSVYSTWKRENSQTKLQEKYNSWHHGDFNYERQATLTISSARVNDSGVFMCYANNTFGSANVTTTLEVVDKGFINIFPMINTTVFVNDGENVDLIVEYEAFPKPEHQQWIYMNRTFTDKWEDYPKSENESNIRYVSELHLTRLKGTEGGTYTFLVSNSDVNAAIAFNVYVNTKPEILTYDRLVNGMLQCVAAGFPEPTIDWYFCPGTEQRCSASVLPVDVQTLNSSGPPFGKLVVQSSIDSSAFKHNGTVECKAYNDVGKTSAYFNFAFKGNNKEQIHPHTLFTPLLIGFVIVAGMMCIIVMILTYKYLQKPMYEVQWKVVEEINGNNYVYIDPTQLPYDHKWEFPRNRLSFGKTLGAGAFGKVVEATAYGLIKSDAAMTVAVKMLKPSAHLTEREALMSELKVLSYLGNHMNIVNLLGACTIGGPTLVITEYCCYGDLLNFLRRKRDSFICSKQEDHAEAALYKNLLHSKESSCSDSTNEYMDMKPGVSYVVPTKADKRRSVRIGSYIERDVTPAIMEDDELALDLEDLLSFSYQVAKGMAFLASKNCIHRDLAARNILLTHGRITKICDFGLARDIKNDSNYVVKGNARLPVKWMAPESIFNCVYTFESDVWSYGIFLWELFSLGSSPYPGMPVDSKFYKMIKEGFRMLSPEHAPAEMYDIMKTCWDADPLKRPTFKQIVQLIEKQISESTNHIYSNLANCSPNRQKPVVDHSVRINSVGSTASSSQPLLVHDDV

Cc1cc(NC(=O)[C@H](O)c2cc(F)cc(F)c2)ccc1-c1cnc(N)c(C(=O)NC(C)C)c1  remaining binding (CSNK1E (Homo sapiens, UniProt P49674); binding, competition with immobilised ligand; 0.1 µM): 86%
CCN1CCN(Cc2ccc(C(=O)Nc3ccc(C)c(NCc4cnc5[nH]ccc5c4OC)c3)cc2C(F)(F)F)CC1  remaining binding (ABL1 phosphorylated; binding, competition with immobilised ligand; 1 µM): 0.45%
Cc1cnc2nc1Nc1cccc(c1)COC/C=C/COCc1cc(ccc1OCCN1CCOCC1)N2  remaining binding (ABL1 (Homo sapiens, UniProt P00519, H396P); 0.1 µM; reference: DMSO control): 62%
Cn1cc(-c2cc(N3CCCCS3(=O)=O)ccc2N[C@H]2CC[C@H](C)CC2)c2cc[nH]c2c1=O (stereo in doubt)  remaining binding (BRPF1; binding, competition with immobilised ligand; 1 µM): 100%
CNC(=O)C1CCN(c2cc(C)c(F)cc2NC(=O)c2ccc(-c3cc(O)ccc3C)c(C)c2)CC1  remaining binding (ABL1 phosphorylated; binding, competition with immobilised ligand; 1 µM): 25%
CC(C)=CC1OC(C)(C)C2C=C3C(=O)C(Cl)=CC(O)C3C3C(O)C4OC4C(=O)C132 (centres unmarked)  remaining binding (Tyrosine-protein kinase ABL1, non-phosphorylated (ABL1, Homo sapiens, UniProt P00519, F317I); cell-free assay, competition with immobilised ligand; 10 µM): 98%
CC(=O)N1c2ccc(-c3ccc(CNC(=O)c4cn5cc(-c6cnc(N)nc6)nc(N6CCOCC6)c5n4)cc3)cc2CC[C@@H]1C  remaining binding (BRPF1; binding, competition with immobilised ligand; 10 µM): 86%
COc1cc(Nc2nccc(-c3cnn4nc(OC)ccc34)n2)cc(C(F)(F)F)c1  remaining binding (KIT (Homo sapiens, UniProt P10721, A829P); binding; 1 µM): 77%

Repeated from above:
COc1cc(Nc2nccc(-c3cnn4nc(OC)ccc34)n2)cc(C(F)(F)F)c1  remaining binding (KIT (Homo sapiens, UniProt P10721, A829P); binding; 1 µM): 77%
